Measurements pooled from the literature.
A part holds a random share of what one study measured. pIC50: −log10 of the molar value.
Chain of UniProt P10721 (whole entry, unmodified, looked up): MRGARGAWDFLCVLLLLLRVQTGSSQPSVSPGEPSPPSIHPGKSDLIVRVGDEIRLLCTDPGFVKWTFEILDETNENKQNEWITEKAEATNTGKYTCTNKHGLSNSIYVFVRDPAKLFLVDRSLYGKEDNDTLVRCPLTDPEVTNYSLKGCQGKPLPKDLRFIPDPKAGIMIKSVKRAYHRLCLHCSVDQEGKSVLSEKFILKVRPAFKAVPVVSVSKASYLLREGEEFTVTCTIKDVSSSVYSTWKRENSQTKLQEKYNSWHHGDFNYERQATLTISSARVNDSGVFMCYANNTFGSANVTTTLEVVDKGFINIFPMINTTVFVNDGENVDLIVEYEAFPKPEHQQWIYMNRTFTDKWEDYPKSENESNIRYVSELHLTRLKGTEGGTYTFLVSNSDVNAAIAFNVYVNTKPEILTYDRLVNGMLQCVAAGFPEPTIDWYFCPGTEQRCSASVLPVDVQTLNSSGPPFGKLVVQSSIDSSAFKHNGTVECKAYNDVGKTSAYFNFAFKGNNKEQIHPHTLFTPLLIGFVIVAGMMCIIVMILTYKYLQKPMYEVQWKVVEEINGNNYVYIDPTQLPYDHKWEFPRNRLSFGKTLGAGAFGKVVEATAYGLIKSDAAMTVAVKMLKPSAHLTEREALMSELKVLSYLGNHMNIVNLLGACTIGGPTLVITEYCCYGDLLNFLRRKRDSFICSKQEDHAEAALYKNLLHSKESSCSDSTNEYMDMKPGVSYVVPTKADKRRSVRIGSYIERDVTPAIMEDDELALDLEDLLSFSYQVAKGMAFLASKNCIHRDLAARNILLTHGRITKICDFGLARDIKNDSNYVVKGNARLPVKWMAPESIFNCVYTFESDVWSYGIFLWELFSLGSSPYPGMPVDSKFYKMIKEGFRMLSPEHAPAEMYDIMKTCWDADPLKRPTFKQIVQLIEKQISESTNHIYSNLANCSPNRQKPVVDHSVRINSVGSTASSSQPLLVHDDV
Chain of UniProt P49761 (whole entry, looked up): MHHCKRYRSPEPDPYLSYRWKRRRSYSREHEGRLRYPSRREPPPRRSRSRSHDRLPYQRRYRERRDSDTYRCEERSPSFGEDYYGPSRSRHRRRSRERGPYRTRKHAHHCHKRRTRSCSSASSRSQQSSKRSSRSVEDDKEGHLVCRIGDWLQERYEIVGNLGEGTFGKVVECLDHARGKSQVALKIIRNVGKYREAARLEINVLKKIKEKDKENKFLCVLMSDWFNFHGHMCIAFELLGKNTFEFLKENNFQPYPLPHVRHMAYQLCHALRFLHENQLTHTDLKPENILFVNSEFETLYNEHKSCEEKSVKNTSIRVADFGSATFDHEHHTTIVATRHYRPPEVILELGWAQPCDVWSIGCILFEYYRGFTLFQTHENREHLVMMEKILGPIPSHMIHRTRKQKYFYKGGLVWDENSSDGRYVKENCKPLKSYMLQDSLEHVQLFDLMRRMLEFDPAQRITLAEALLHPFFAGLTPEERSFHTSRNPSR
Chain of UniProt O00329 (whole entry, looked up): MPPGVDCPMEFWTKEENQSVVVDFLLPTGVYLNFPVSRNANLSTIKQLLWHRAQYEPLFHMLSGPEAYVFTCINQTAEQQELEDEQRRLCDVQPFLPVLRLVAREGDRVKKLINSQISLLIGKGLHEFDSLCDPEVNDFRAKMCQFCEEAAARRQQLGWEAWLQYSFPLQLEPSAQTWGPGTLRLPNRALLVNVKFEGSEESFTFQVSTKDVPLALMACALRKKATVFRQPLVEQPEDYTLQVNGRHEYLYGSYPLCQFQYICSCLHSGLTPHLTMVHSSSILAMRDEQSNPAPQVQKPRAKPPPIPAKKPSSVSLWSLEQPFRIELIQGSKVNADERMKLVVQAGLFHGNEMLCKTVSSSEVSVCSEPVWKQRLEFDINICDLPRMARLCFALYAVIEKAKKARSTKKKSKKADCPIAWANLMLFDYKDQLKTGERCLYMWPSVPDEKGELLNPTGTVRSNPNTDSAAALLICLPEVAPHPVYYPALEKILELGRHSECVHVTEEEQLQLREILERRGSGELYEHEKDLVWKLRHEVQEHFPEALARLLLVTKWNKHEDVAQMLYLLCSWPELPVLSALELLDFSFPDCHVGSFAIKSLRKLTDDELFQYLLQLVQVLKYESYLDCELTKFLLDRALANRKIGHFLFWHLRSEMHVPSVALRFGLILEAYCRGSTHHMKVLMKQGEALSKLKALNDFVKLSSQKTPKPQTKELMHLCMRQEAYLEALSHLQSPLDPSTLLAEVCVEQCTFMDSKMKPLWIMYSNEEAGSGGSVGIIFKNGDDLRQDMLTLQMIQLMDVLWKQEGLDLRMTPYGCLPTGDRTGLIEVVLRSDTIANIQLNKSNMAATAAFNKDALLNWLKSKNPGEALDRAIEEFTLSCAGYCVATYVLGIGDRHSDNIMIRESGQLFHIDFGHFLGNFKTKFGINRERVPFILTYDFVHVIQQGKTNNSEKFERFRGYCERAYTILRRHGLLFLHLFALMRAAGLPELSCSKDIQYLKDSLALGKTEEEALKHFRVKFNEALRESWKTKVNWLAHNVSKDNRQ
Chain of UniProt P00519 (whole entry, unmodified, looked up): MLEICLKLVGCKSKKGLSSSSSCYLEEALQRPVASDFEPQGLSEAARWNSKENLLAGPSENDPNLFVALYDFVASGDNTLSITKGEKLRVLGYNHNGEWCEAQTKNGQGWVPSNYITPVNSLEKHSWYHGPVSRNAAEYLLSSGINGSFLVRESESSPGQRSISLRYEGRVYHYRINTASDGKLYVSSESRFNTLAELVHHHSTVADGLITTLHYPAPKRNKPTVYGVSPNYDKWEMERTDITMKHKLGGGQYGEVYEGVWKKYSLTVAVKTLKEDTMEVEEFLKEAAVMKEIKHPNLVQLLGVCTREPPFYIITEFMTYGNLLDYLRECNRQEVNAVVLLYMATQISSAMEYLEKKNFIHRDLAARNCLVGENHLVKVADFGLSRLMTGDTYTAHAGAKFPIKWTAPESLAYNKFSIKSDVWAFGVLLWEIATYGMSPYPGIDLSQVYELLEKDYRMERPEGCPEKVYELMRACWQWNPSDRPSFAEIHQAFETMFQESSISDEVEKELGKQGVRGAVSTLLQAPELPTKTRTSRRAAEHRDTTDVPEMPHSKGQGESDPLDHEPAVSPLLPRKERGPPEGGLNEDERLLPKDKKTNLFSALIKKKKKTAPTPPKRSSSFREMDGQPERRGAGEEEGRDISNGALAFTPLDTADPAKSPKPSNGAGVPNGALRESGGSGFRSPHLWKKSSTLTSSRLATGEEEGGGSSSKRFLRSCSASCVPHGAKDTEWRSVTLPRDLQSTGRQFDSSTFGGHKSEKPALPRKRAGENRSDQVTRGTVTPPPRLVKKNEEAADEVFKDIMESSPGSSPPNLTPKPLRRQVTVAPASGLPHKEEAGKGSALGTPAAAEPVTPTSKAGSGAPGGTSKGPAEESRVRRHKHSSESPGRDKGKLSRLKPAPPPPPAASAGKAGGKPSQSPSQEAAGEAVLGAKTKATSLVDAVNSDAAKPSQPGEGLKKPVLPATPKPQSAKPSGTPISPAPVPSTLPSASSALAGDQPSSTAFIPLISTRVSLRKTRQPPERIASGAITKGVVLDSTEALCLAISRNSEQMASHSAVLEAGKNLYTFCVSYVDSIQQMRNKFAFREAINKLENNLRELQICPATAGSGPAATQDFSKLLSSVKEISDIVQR

Block 1
SMILES: O=C(NCc1ncc(C(F)(F)F)cc1Cl)c1ccc2c(c1)C1(CCS(=O)(=O)CC1)[C@H](C1CC1)N2S(=O)(=O)c1ccc(F)cc1
Effect on: cell-free assay
Method: competition with immobilised ligand
Concentration: 1 µM
target | remaining binding [%]
Insulin receptor (INSR, Homo sapiens, UniProt P06213) | 100
KIT (Homo sapiens, UniProt P10721, D816V) | 100
HUNK (Homo sapiens, UniProt P57058) | 84
Tyrosine-protein kinase ABL1, non-phosphorylated (ABL1, Homo sapiens, UniProt P00519, F317L) | 74
TNK2 (Homo sapiens, UniProt Q07912) | 85
CSNK1G2 (Homo sapiens, UniProt P78368) | 100
KIT (Homo sapiens, UniProt P10721, D816H) | 79
CLK3 (Homo sapiens, UniProt P49761) | 86
NTRK2 (Homo sapiens, UniProt Q16620) | 60
TSSK3 (Homo sapiens, UniProt Q96PN8) | 87
PIK3CD (Homo sapiens, UniProt O00329) | 67
FGFR4 (Homo sapiens, UniProt P22455) | 100

Block 2
Host: mouse
Sample: microsomes or S9
Concentration: 2 µM
Time: 0.5 h
Structure (SMILES) | remaining compound
O=c1c(-c2nc3ccccc3nc2O)c[nH]n1-c1ccccc1 | 34.9%
c1cc2c(cc1OCc1cn(CC3CCCNC3)nn1)CCC2 (stereo not drawn) | 84.8%
CCOC(=O)c1[nH]c(C)c(C(=O)CN2C(=O)NC(C)(C)C2=O)c1C | 17.7%
Cc1nc(S(=O)(=O)Nc2cnc3ccnn3c2)cn1C | 91.2%
COc1ccc(/C=N/n2cnnc2)cc1COc1cc(C)c(Cl)cc1C(C)C | > 100%
NS(=O)(=O)c1ccc(CCNc2nc3c(S(=O)(=O)c4ccccc4)nnn3c3ccccc23)cc1 | 3.19%
Brc1ccc2c3c(ccnc13)CCO2 | 0%
Cc1ccc2c(c1)c(=O)n(C)c1nnc(CNC(C)c3ncc(C)s3)n21 (stereo not drawn) | 59.6%
Brc1ccc2c(c1)CCN2Cc1cnc(-c2ccncc2)s1 | 22.4%
Cc1ccccc1Cn1c(=O)n(Cc2ccc(F)cc2)c(=O)c2nccnc21 | 36.1%
CCCC1CN(CC(=O)N(C(C)C)C(C)C)CCN1CC(=O)N(C(C)C)C(C)C (stereo not drawn) | 7.05%
Cn1ncc2cc(C(=O)Nc3ccn(Cc4ccncc4)n3)cc(O)c21 | > 100%
CCCNC(=O)C1CN(CC(=O)Nc2ccccc2C(=O)NCc2ccccc2)c2ccccc2O1 (stereo not drawn) | 3.21%
CC(C)n1cc(NC(=O)C2(C)Oc3ccccc3NC2=O)cn1 (stereo not drawn) | 95.2%
COC(=O)c1ccc(Oc2c(C)nn(C(=O)c3ccc(Cl)nc3)c2C)cc1 | 70%

Block 3
Target: MAP/microtubule affinity-regulating kinase 3 (MARK3, Homo sapiens, UniProt P27448)
Chain of UniProt P27448 (whole entry, looked up): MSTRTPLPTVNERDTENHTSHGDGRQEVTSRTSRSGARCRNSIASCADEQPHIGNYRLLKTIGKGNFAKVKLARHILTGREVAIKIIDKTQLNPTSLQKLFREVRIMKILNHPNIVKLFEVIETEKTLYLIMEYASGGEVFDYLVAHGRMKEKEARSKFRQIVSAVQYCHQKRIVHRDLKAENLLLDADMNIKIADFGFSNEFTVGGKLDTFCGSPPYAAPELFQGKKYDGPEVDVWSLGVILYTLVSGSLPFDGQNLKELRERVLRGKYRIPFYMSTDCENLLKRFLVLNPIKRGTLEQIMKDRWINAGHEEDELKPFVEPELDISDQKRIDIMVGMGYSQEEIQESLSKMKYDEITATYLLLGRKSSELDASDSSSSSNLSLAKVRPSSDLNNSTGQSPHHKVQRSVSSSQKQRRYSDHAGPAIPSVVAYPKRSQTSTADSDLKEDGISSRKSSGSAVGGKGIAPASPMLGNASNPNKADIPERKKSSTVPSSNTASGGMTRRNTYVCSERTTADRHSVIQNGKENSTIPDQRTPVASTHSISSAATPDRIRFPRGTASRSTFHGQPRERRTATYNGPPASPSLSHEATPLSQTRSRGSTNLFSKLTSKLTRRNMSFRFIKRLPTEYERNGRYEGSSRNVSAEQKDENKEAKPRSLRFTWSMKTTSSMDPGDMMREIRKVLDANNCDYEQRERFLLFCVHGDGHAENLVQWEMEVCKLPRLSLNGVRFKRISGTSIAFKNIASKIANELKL
Effect on: enzyme activity
Action: inhibitor
Concentration: 0.5 µM
Reference: control
SMILES | remaining activity
Cc1ccc(NC2=CC(=O)c3sc(C)nc3C2=O)cc1 | 95.1%
Oc1ccc(Nc2nc(-c3ccc(Cl)cc3)cs2)cc1 | 95.3%
CCCC(=O)Oc1ccc2[nH]c(C(=O)c3cc4ccccc4[nH]3)cc2c1 | 92.1%
Nc1nccc(-c2c(-c3ccc(F)cc3)ncn2C2CCNCC2)n1 | 103%
COc1cc(Nc2c(C#N)cnc3cc(OCCCN4CCN(C)CC4)c(OC)cc23)c(Cl)cc1Cl | 65.4%
COc1ccc(S(=O)(=O)N(CCO)c2ccccc2CN(C)CC=Cc2ccc(Cl)cc2)cc1 | 102%
Nc1ncnc2c1cnn2-c1ccccc1 | 86.1%
CSc1nc(-c2ccnc(N[C@@H](C)c3ccccc3)c2)c(-c2ccc(F)cc2)[nH]1 (racemic) | 100%
O=C1Cc2c([nH]c3ccc([N+](=O)[O-])cc23)-c2ccccc2N1 | 67.7%
Fc1ccc(-c2nc3n(c2-c2ccncc2)CCS3)cc1 | 88.9%
CC[n+]1c(/C=C/N(C)c2ccccc2)n(-c2ccccc2)c2ccc(-c3nc4ccccc4s3)cc21 | 98.8%
CC#CC(=O)Nc1cc2c(Nc3ccc(F)c(Cl)c3)ncnc2cn1 | 107%
Nc1nc(Nc2ccc(S(N)(=O)=O)cc2)nn1C(=O)c1c(F)cccc1F | 67.6%
NC(=O)c1ccc(N(C(N)=O)c2c(F)cccc2F)nc1-c1ccc(F)cc1F | 98.1%
N#CC(=C(N)Sc1ccc(N)cc1)c1ccccc1C(F)(F)F | 107%
Cc1cncc2cccc(S(=O)(=O)N3CCCN(C(=O)CN)C[C@@H]3C)c12 | 98.9%
CC(=O)c1ccc(N2CCOCC2)cc1O | 108%
O=S(=O)(NCCNC/C=C/c1ccc(Br)cc1)c1cccc2cnccc12 | 96.2%
CC(C)(C)n1nc(Cc2cccc3ccccc23)c2c(N)ncnc21 | 81.5%
CCc1[nH]c(-c2ccc(OC)cc2)nc1-c1ccncc1 | 101%
O=C1NC(=O)C(c2c[nH]c3ccccc23)=C1c1c[nH]c2ccccc12 | 98.5%
Cc1cc(Nc2nc(-c3ccccc3)nc3ccccc23)n[nH]1 | 89%

Block 4
Target: Beta-1 adrenergic receptor (ADRB1, Homo sapiens, UniProt P08588)
Chain of UniProt P08588 (whole entry, looked up): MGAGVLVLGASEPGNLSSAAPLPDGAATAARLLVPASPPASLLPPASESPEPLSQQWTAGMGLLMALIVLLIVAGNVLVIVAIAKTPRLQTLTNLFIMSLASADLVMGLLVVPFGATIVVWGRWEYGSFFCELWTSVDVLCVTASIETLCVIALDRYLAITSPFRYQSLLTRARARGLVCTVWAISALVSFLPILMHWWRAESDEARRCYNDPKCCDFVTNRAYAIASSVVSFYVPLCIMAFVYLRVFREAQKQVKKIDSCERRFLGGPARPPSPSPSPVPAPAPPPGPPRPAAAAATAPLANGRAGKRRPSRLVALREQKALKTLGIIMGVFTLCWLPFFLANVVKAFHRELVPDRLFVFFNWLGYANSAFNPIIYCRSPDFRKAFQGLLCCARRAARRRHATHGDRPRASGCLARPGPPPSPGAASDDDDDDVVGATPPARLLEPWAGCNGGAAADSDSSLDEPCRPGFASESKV
Action: antagonist
SMILES | pIC50
Cc1nc(C2CC(O)C2)cc(N2CC(N3CCOCC3)C2)n1 (stereo not drawn) | ≤ 4.00
Cc1nc(N)ncc1-c1nc(N2CCOCC2)c2sc(C(C)(C)O)cc2n1 | ≤ 4.00
CN(C(=O)c1sc2nc(-c3cccs3)cc(C(F)(F)F)c2c1N)c1ccc(F)cc1 | ≤ 4.00
COc1cc(CN[C@H]2CC[C@H](O)CC2)ccc1OCC(O)CN1CCSCC1 (stereo partly drawn) | ≤ 4.00
COc1ccccc1N1CCN(CC[C@@H]2CC[C@H](O)[C@@H](C(=O)NC3CCCCC3)O2)CC1 | ≤ 4.00
O=C(Nc1cccc(-c2ccc(N3CCOCC3)nn2)c1)Nc1cc(Cl)ccc1Cl | ≤ 4.00
C[C@H](O)c1onc(-c2ccccc2)c1C(=O)NC1CCOCC1 | ≤ 4.00
O=C(NC1CCN(c2cc(-c3ccccc3)n[nH]2)CC1)c1ccc2ccccc2n1 | ≤ 4.00
COc1cc(-c2cc(-c3cccs3)nc3c(C)noc23)ccn1 | ≤ 4.00
Cc1nn2cc(CCNCC3(O)CNCCOC3)nc2s1 (stereo not drawn) | ≤ 4.00
COc1cc(-c2cc(-c3ccccc3)nc3c(C)noc23)ccn1 | ≤ 4.00
OC(c1ccccc1)c1nc(Nc2ccccc2)n[nH]1 (stereo not drawn) | ≤ 4.00
Cc1noc2c(-c3ccc(N4CCOCC4)cc3)cc(-c3ccccc3)nc12 | ≤ 4.00
COc1ccccc1N1CCN(CC(=O)Nc2ccc(C(N)=O)cc2)CC1 | ≤ 4.00

Excerpt of the above (block 4):
SMILES | pIC50
Cc1nc(N)ncc1-c1nc(N2CCOCC2)c2sc(C(C)(C)O)cc2n1 | ≤ 4.00
Cc1nn2cc(CCNCC3(O)CNCCOC3)nc2s1 (stereo not drawn) | ≤ 4.00
C[C@H](O)c1onc(-c2ccccc2)c1C(=O)NC1CCOCC1 | ≤ 4.00
O=C(Nc1cccc(-c2ccc(N3CCOCC3)nn2)c1)Nc1cc(Cl)ccc1Cl | ≤ 4.00
Cc1nc(C2CC(O)C2)cc(N2CC(N3CCOCC3)C2)n1 (stereo not drawn) | ≤ 4.00
COc1cc(-c2cc(-c3ccccc3)nc3c(C)noc23)ccn1 | ≤ 4.00
